# Measurements pooled from the literature.
# Compare with care: the assays were run in different laboratories. Numbers after ± are the reported error.
# FGFR1: Fibroblast growth factor receptor 1 (FGFR1, Homo sapiens, UniProt P11362)
# Trpv1: Transient receptor potential cation channel subfamily V member 1 (Trpv1, Rattus norvegicus, UniProt O35433)
# GP1 NS2B-NS3 protease: Genome polyprotein, NS2B-NS3 protease (GP1, West Nile virus, UniProt Q9Q6P4)
# TMPRSS11D: Transmembrane protease serine 11D (TMPRSS11D, Homo sapiens, UniProt O60235)
# AGTR1: Type-1 angiotensin II receptor (AGTR1, Homo sapiens, UniProt P30556)
# Kallikrein-6: Kallikrein-6 (Homo sapiens, UniProt Q92876)
# DRD2: D(2) dopamine receptor (DRD2, Homo sapiens, UniProt P14416)
# PPIA: Peptidyl-prolyl cis-trans isomerase A (PPIA, Homo sapiens, UniProt P62937)
# TMPRSS2: Transmembrane protease serine 2 (TMPRSS2, Homo sapiens, UniProt O15393)
SMILES,target,test,test system,conditions,scale,inhibition
OC(c1ccc2c(c1)OC(F)(F)O2)c1c[nH]c2ncc(C(F)(F)F)cc12 (centres unmarked),FGFR1,"enzyme activity, inhibitor",,0.1 µM,,3%
CCC1(CC)C[C@@H](NC(=O)Nc2cccc3c(C)nccc23)c2cc(F)ccc2O1,Trpv1,"proton-induced activation, inhibitor, FLIPR calcium",HEK293 expressing rat TRPV1,"up to 11.25 µmol/L, pH 5.0",partial inhibition,17.7 ± 3.7%
CC(C)C1C=C2CCC3C(C)(C(=O)O)CCCC3(C)C2CC1 (centres unmarked),"Replication protein A 70 kDa DNA-binding subunit (RPA1, Homo sapiens, UniProt P27694)","helix destabilization, EMSA dsDNA probe",,200 µM,,no effect
Oc1c(C(Nc2nc3ccccc3s2)c2cccc(OCc3ccccc3)c2)ccc2cccnc12 (centres unmarked),GP1 NS2B-NS3 protease,"enzyme activity, inhibitor",,"10 µM, 0.1% CHAPS, with: tetrapeptide substrate",,81.8 ± 1.12%
NCc1ccc(NC(=O)c2ncccc2O)cc1,TMPRSS11D,"enzyme activity, fluorogenic substrate",,"10 µM, with: Boc-VPR-AMC",,< 20%
CCCCOC(=O)NS(=O)(=O)c1sc(CC(C)C)cc1-c1cccc(CN(Cc2cccnc2)C(C)=O)c1,AGTR1,"ligand displacement, radioligand",,"10 µM, cell membranes",,23%
OC(c1cccc(C(F)(F)F)c1)c1c[nH]c2ncc(C(F)(F)F)cc12 (centres unmarked),FGFR1,"enzyme activity, inhibitor",,1 µM,,22%
CC(C)c1ccc(C(=O)Nc2ccc(CN)cc2)c(O)c1,Kallikrein-6,"enzyme activity, inhibitor",,10 µM,,80%
Oc1c(C(Nc2nc3ccccc3s2)c2ccccc2OCc2ccccc2)ccc2cccnc12 (centres unmarked),GP1 NS2B-NS3 protease,"enzyme activity, inhibitor",,"25 µM, 0.1% CHAPS, with: tetrapeptide substrate",,83.7 ± 1.31%
NC(=O)c1ccc(C(=O)NOCc2ccc(Sc3cccc(Cl)c3)c(C(F)(F)F)c2)cc1,"Histone deacetylase 3 (HDAC3, Homo sapiens, UniProt O15379)","cell-free assay, inhibitor",,100 µM,,13.6%
CCOC(=O)NS(=O)(=O)c1sc(CC(C)C)cc1-c1ccc2c(c1)CCN(C(=O)C1CC1)C2,AGTR1,"ligand displacement, radioligand",,"10 µM, cell membranes",,28%
CCCCCCCCNc1ccc(C(=O)O)cc1S(=O)(=O)N(C)C,"Solute carrier family 12 member 2 (SLC12A2, Homo sapiens, UniProt P55011)",chloride influx,HEK293 transfected with SLC12A2,100 µM,relative to: DMSO,70.6 ± 9.1%
N=C(N)c1ccc(/N=N/c2cc(/C=C/c3ccccc3)ccc2O)cc1,"Mycosin-1 (Mycolicibacterium thermoresistibile, UniProt G7CDQ2)","protease activity, inhibitor, quenched fluorescent peptide",,"150 µM, with: 20 µM fluorogenic peptide substrate",relative to: DMSO control,68.5%
C[C@@H](N)C1CCN(S(=O)(=O)c2cccc3cnccc23)CC1,"Serine/threonine-protein kinase RIO3 (RIOK3, Homo sapiens, UniProt O14730)","cell-free assay, competition with immobilised ligand",,10 µM,,> 95%
Nc1nc(Nc2ccccc2)sc1C(=O)c1ccccc1,"Mitogen-activated protein kinase 15 (MAPK15, Homo sapiens, UniProt Q8TD08)","enzyme activity, inhibitor",,10 µM,,> 90%
COc1cc(OC)cc(C(O)c2c[nH]c3ncc(C(F)(F)F)cc23)c1 (centres unmarked),FGFR1,"enzyme activity, inhibitor",,1 µM,,89%
CN(C)C(=O)c1cncc(N2Cc3cn(Cc4ccc(F)cc4)nc3C2)n1,DRD2,ligand displacement,,10 µM,,54%
Cc1ccc(O)c(C(=O)Nc2ccc(CN)cc2)c1,Kallikrein-6,"enzyme activity, inhibitor",,10 µM,,25%
FC1(F)Oc2ccc(Cc3c[nH]c4ncc(C(F)(F)F)cc34)cc2O1,FGFR1,"enzyme activity, inhibitor",,0.1 µM,,19%
COc1ccc2c(O)c(C(=O)Nc3ccc(CN)cc3)ccc2c1,TMPRSS11D,"enzyme activity, fluorogenic substrate",,"10 µM, with: Boc-VPR-AMC",,< 20%
CC(C)Oc1cccc(NC(=O)CCCN2C(=O)c3ccccc3C2=O)c1,"Indole-3-acetic acid-amido synthetase GH3.8 (GH3.8, Oryza sativa subsp. japonica, UniProt Q0D4Z6)","enzyme activity, inhibitor",Oryza sativa,concentration not given,,inhibited
N#Cc1c(NC(=O)c2ccc(Cl)cc2)sc2c1CCC(c1ccccc1)C2 (centres unmarked),"L-lactate dehydrogenase A chain (LDHA, Homo sapiens, UniProt P00338)","enzyme activity, inhibitor, fluorescence",,100 µg/mL,,27.5%
NCc1ccc(NC(=O)c2ccc3ccc(Cl)cc3c2O)cc1,TMPRSS11D,"enzyme activity, fluorogenic substrate",,"10 µM, with: Boc-VPR-AMC",,< 20%
Nc1n[nH]c(=O)c2nn(-c3ccccc3)c(-c3cc4ccccc4o3)c12,FGFR1,"enzyme activity, inhibitor, ELISA",,0.1 µM,,-11.8%
OC(c1cc(F)ccc1F)c1c[nH]c2ncc(C(F)(F)F)cc12 (centres unmarked),FGFR1,"enzyme activity, inhibitor",,0.1 µM,,19%
Oc1ccc(-c2csc(Cc3ccccc3)n2)c(O)c1,"Semaphorin-3C, with neuropilin-1 (SEMA3C, Homo sapiens, UniProt Q99985)",SEMA3C binding to NRP1,,25 µM,relative to: DMSO,inactive
FC(F)(F)Oc1cccc(Cc2c[nH]c3ncc(C(F)(F)F)cc23)c1,FGFR1,"enzyme activity, inhibitor",,0.1 µM,,15%
CCCCOC(=O)NS(=O)(=O)c1sc(CC(C)C)cc1-c1ccc(C)c(Cn2ccnc2)c1,AGTR1,"ligand displacement, radioligand",,"10 µM, cell membranes",,14%
COc1cc(C(=O)NC2CCC(N3CCN(CC4CCC5(CCCC5)C4)CC3)CC2)c(F)cc1Nc1ncc2c(n1)N(C1CCCC1(F)F)CC(F)(F)C(=O)N2C (centres unmarked),"Epithelial discoidin domain-containing receptor 1 (DDR1, Homo sapiens, UniProt Q08345)","cell-free assay, TR-FRET",,10 µM,,0.19%
CCc1nc2ccc(Cl)cn2c1C(=O)NCc1ccc2oc(-c3ccc(OC(F)(F)F)cc3)nc2c1,"MT-CYB (Bos taurus, UniProt P00157)",oxygen consumption,bovine heart submitochondrial particles,1 µM,,no inhibition
Cc1noc(NS(=O)(=O)c2ccc(NC(=O)c3cc(-c4cccc(Cl)c4)nc4ccccc34)cc2)c1C,PPIA,"enzyme activity, inhibitor",,10 µM,,> 50%
COC(=O)c1cc(C(=O)OC)cc(-c2cc(C)c3ncc(C(N)=O)c(Nc4cccc(OC)c4)c3c2)c1,"Class 1 phosphodiesterase PDEB1 (PDEB1, Trypanosoma brucei, UniProt Q8WQX9)","enzyme activity, inhibitor",,10 µM,,50%
CCn1c2ccccc2c2cc(CN[C@H]3CC[C@H](NC(=O)c4cc5ccccc5[nH]4)CC3)ccc21,DRD2,"cell-free assay, inhibitor",,10 µM,,15.6%
COc1ccccc1CNC(=O)CCn1c(=O)[nH]c2ccsc2c1=O,"Heat shock protein HSP 90-beta, N-terminal domain (HSP90AB1, Homo sapiens, UniProt P08238)","binding, fluorescence polarization",,"10 µM, with: FITC-geldanamycin",,no inhibition
COc1cccc(C(O)c2c[nH]c3ncc(C(F)(F)F)cc23)c1 (centres unmarked),FGFR1,"enzyme activity, inhibitor",,0.1 µM,,35%
Cc1cc(O)c(C=O)c2c1C(=O)Oc1c(CO)c(O)c3c(c1O2)C(O)OC3=O (centres unmarked),"cGMP-specific 3',5'-cyclic phosphodiesterase (PDE5A, Homo sapiens, UniProt O76074)","enzyme activity, inhibitor",,7.5 µg/mL,,73.5%
CC(C)C1=CC23CCC4C(C)(C(=O)O)CCCC4(C)C2CC1C(C(=O)O)C3C(=O)O (centres unmarked),"Replication protein A 70 kDa DNA-binding subunit, DBD-F (RPA1, Homo sapiens, UniProt P27694)","ssDNA binding, EMSA",,"300 to 1 µM, protein 2 µM",,inhibited
COc1ccccc1-c1cc(C(=O)Nc2ccc(S(=O)(=O)Nc3cc(C)on3)cc2)c2ccccc2n1,PPIA,"enzyme activity, inhibitor",,10 µM,,26.5%
O=C(c1ccncc1)N1N=C2/C(=C/c3ccc(F)cc3)CCCC2C1c1ccc(F)cc1 (centres unmarked),"Prostaglandin G/H synthase 2 (PTGS2, Homo sapiens, UniProt P35354)",enzyme activity,,concentration not given,,70.3%
Cc1c(-c2c3c(N)n[nH]c(=O)c3nn2-c2ccccc2)oc2c(Cl)ccc(Cl)c12,FGFR1,"enzyme activity, inhibitor, ELISA",,0.1 µM,,25.9%
NCc1ccc(NC(=O)c2c[nH]c3ccccc3c2=O)cc1,TMPRSS2,"enzyme activity, inhibitor",,"10 µM, with: Boc-QAR-AMC",,< 20%
O=C(N[C@@H](CC1CCCCC1)C(=O)N[C@@H](C[C@H]1CCNC1=O)C(=O)C(=O)NC1CC1)OCc1cccc(Cl)c1,"Carboxypeptidase A1 (Homo sapiens, UniProt P15085)","enzyme activity, inhibitor",,"43 µM, inhibitor/enzyme ratio 250",,0%
Cc1cc2c(NC(=O)N[C@@H]3CC(C)(C)Oc4cc(C(F)(F)F)ccc43)c(C)ccc2cn1,Trpv1,"acid-evoked calcium influx, antagonist","HEK293, rat","11.25 µM, pH 5",,99.7 ± 0.1%
CCCCOC(=O)NS(=O)(=O)c1sc(CC(C)C)cc1-c1cccc2c1CCN(C(C)=O)C2,AGTR1,"ligand displacement, radioligand",,"10 µM, cell membranes",,22%
COc1cc(Cc2c[nH]c3ncc(C(F)(F)F)cc23)cc(OC)c1,FGFR1,"enzyme activity, inhibitor",,1 µM,,91%
Cc1ccc([N+](=O)[O-])cc1S(=O)(=O)N(C)/N=C/c1cnc2ccc(Br)cn12,"Mitogen-activated protein kinase 13 (MAPK13, Homo sapiens, UniProt O15264)","enzyme activity, inhibitor, radiometric",,50 nM,,5.4%
NCc1ccc(NC(=O)c2cc(Br)ccc2O)cc1,TMPRSS2,"enzyme activity, inhibitor",,"10 µM, with: Boc-QAR-AMC",,< 20%

# For quick reference, copied from above:
SMILES,target,test,test system,conditions,scale,inhibition
Cc1ccc(O)c(C(=O)Nc2ccc(CN)cc2)c1,Kallikrein-6,"enzyme activity, inhibitor",,10 µM,,25%
FC1(F)Oc2ccc(Cc3c[nH]c4ncc(C(F)(F)F)cc34)cc2O1,FGFR1,"enzyme activity, inhibitor",,0.1 µM,,19%
COc1ccc2c(O)c(C(=O)Nc3ccc(CN)cc3)ccc2c1,TMPRSS11D,"enzyme activity, fluorogenic substrate",,"10 µM, with: Boc-VPR-AMC",,< 20%
CC(C)Oc1cccc(NC(=O)CCCN2C(=O)c3ccccc3C2=O)c1,"Indole-3-acetic acid-amido synthetase GH3.8 (GH3.8, Oryza sativa subsp. japonica, UniProt Q0D4Z6)","enzyme activity, inhibitor",Oryza sativa,concentration not given,,inhibited
N#Cc1c(NC(=O)c2ccc(Cl)cc2)sc2c1CCC(c1ccccc1)C2 (centres unmarked),"L-lactate dehydrogenase A chain (LDHA, Homo sapiens, UniProt P00338)","enzyme activity, inhibitor, fluorescence",,100 µg/mL,,27.5%
